Measurements pooled from the literature.
Protocols differ between the studies behind these lines.
Target: Histone deacetylase 2 (HDAC2, Homo sapiens, UniProt Q92769)
Sequence of UniProt Q92769 (whole entry, looked up): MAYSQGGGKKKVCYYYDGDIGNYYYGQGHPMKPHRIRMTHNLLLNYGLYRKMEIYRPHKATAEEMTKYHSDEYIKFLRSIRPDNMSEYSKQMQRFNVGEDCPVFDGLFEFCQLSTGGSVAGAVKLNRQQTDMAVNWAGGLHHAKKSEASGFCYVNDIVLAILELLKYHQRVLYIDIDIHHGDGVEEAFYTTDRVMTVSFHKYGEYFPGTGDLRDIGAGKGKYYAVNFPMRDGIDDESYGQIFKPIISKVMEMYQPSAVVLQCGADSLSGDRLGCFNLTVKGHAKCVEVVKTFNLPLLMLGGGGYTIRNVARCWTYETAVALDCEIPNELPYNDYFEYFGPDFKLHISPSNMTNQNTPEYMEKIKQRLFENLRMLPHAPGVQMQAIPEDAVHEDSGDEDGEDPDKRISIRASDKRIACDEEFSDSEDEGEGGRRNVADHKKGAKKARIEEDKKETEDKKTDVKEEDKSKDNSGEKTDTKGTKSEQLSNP
Action: inhibitor

SMILES	assay	test system	setting	measurement	value
Cc1c(COc2cc(OCc3cccc(C#N)c3)c(CNC(C)(CO)CO)cc2Cl)cccc1-c1cccc(OCCCCCC(=O)NO)c1	enzyme activity	–	–	IC50	101 nM
COc1ccc(C(=O)NO)cc1NC(=O)c1ccc(-c2ccccc2)cc1	competition pulldown	SW620 and MV4-11 lysate	1 h	Kd	> 30.2 µM
O=C(CCc1ccc(CNC(C(=O)OC2CCCC2)C2CCCCC2)cn1)NO (stereo not shown)	enzyme activity	–	–	IC50	1380 nM
Cc1c(COc2cc(OCc3cccc(C#N)c3)c(CN3CCCC[C@H]3C(=O)O)cc2Cl)cccc1-c1cccc(OCCCCCC(=O)NO)c1	enzyme activity	–	–	IC50	35 nM
O=C(NO)c1cnc(NC2(c3cccc(F)c3)CCCCC2)nc1	competition pulldown	SW620 and MV4-11 lysate	1 h	Kd	> 30.2 µM
C[S@@](=N)(=O)c1ccc(C(=O)Nc2cc(-c3ccc(F)cc3)ccc2N)cc1	enzyme activity, fluorescence	–	–	IC50	30 nM
Cc1nc2c(F)cc(-c3nc(Nc4ccc(CNC(=O)CCCCCCC(=O)NO)cc4)ncc3F)cc2n1C(C)C	enzyme activity	–	–	IC50	520 nM
O=C(/C=C/c1cccc(OS(=O)(=O)Oc2ccc(Br)cc2)c1)NO	enzyme activity, fluorescence	–	–	IC50	201 nM
Cc1c(COc2cc(OCc3cccc(C#N)c3)c(CN3CCCC[C@@H]3C(=O)O)cc2Cl)cccc1-c1cccc(OCCCCCCC(=O)NO)c1	enzyme activity	–	–	IC50	28 nM
CC[C@H](C)[C@@H]1NC(=O)[C@H](Cc2ccccc2C(F)(F)F)NC(=O)CCSCc2cccc(n2)CSCCCNC(=O)[C@H](CCCCCC(=O)NO)NC1=O	enzyme activity, fluorescence	–	–	Ki	4 nM
